Assay results pooled from the literature.
Lines come from different studies, so protocols differ. Several values in a cell are separate wells, animals, samples, runs or records. ± gives the spread as reported.

SMILES | assay | system | conditions | half-life
Cc1ccc(S(=O)(=O)n2cc3c4c2C(=O)C(NCc2ccc(Cl)cc2)=CC4=NCC3)cc1 | – | Sprague-Dawley rat, plasma | intravenous, 5 mg/kg, two-compartment model | 1.79 h and 0.82 h and 1.33 h
N=C(N)NCCNC(=O)C1(Nc2ccccc2)CCN(Cc2ccccc2)CC1 | – | male Sprague-Dawley rats, plasma | oral, 50 mg/kg | 0.1 h
Cc1cccc(CNC(=O)c2cn(CCNC(=O)c3ccccc3Sc3c([N+](=O)[O-])ncn3C)c3cc4c(cc3c2=O)OC(F)(F)O4)n1 | – | Sprague-Dawley rat, male, whole blood | intravenous, 5 mg/kg of parent compound | 0.6 ± 0.18 h
Cn1nc2c(=O)n(C3CC3)ncc2c1[C@](O)(c1cnc(C(F)(F)F)c(Cl)c1)C(F)(F)F | – | Sprague-Dawley rat, male | intravenous, 1 mg/kg | 15 ± 1.2 h
Nc1nc(O)c2ncn(COC(CO)CO)c2n1 | – | Sprague-Dawley rat, male | oral, 10 mg/kg | 1.8 ± 0.317 h
Cn1cnc([N+](=O)[O-])c1Sc1ccccc1C(=O)NCCOc1ccnc2cc3c(cc12)OCO3 | LC-UV/MS | Sprague-Dawley rat, whole blood | 10 µM, 37 °C | 0.482 h
O=C(O)C1=CO[C@@H](O[C@@H]2O[C@H](CO)[C@@H](O)[C@H](O)[C@H]2O)[C@@H]2C(CO)=CC[C@H]12 | – | rat, plasma | oral, 500 mg/kg Eu + 217 mg/kg Pc extract, dosed as combined Eu and Pc extracts | 1.91 ± 0.34 h
NCc1cc2c(cc1F)C(=O)N(C1CCC(=O)NC1=O)C2 (stereo not shown) | – | male Sprague-Dawley rat, whole blood | – | > 3 h
Cc1cccc(CNC(=O)c2cn(CCNC(=O)c3ccccc3S)c3cc4c(cc3c2=O)OC(F)(F)O4)n1 | – | Sprague-Dawley rat, male, whole blood | intravenous, 5 mg/kg | 5.43 ± 1.64 h
OCC1=C[C@@H](O)[C@@H]2C=CO[C@@H](O[C@@H]3O[C@H](CO)[C@@H](O)[C@H](O)[C@H]3O)[C@H]12 | – | rat, plasma | oral, 500 mg/kg Eu extract, dosed as Eu extract | 2.37 ± 1.72 h
CC(C)[C@@H](CN1CC[C@@](C)(c2cccc(O)c2)[C@@H](C)C1)NC(=O)[C@H]1Cc2ccc(O)cc2CN1 | – | Sprague-Dawley rat, plasma | intraperitoneal, 3 mg/kg | 23.4 h
Cn1cnc([N+](=O)[O-])c1Sc1ccccc1C(=O)NCCn1ccc(=O)c2cc3c(cc21)OCO3 | LC-UV/MS | Sprague-Dawley rat, whole blood | 10 µM, 37 °C | 0.312 h
CC(C)C[C@H](NC(=O)[C@H](CC(C)C)NC(=O)CNC(=O)[C@H](C)NC(=O)[C@H](C)NC(=O)[C@H](CCCNC(=N)N)NC(=O)CNC(=O)CCCCNC(=O)CCCCNC(=O)CCCCNC(=O)[C@H](CCCCN)NC(=O)[C@H](Cc1ccc(O)cc1)NC(=O)CCc1c[nH]c2ccccc12)C(N)=O | – | Sprague-Dawley rat, male, plasma | 1 µM | 0.652 ± 0.075 h
Cc1cc(NC(=O)c2cccc(NC(=O)/C=C/CN(C)C)c2)ccc1Nc1nccc(-c2cccnc2)n1 | – | Wistar rat male, blood plasma | 1 µM | 5.02 h
C1=C/COCc2cc(ccc2OCCN2CCCC2)Nc2nccc(n2)-c2cccc(c2)COC/1 | LC-MS/MS | Sprague-Dawley rat, male, plasma | oral, 36 mg/kg, added: voriconazole 30 mg/kg oral | 10.1 ± 2.06 h
CCCCCOC(=O)Nc1nc(=O)n([C@@H]2O[C@H](C)[C@@H](O)[C@H]2O)cc1F | – | Sprague-Dawley rat, plasma | oral, 200 mg/kg, added: chitooligosaccharide 20 min before glucosamine 250 mg/kg | 0.324 ± 0.0643 h

A few entries again:
SMILES | assay | system | conditions | half-life
CC(C)C[C@H](NC(=O)[C@H](CC(C)C)NC(=O)CNC(=O)[C@H](C)NC(=O)[C@H](C)NC(=O)[C@H](CCCNC(=N)N)NC(=O)CNC(=O)CCCCNC(=O)CCCCNC(=O)CCCCNC(=O)[C@H](CCCCN)NC(=O)[C@H](Cc1ccc(O)cc1)NC(=O)CCc1c[nH]c2ccccc12)C(N)=O | – | Sprague-Dawley rat, male, plasma | 1 µM | 0.652 ± 0.075 h
Nc1nc(O)c2ncn(COC(CO)CO)c2n1 | – | Sprague-Dawley rat, male | oral, 10 mg/kg | 1.8 ± 0.317 h
